Results from different studies.
Compare with care: the assays were run in different laboratories.

| Compound | organism | assay | system | setting | MIC |
| --- | --- | --- | --- | --- | --- |
| [O-][N+]1=C(Cc2ccccc2)C2=NCCCN2c2ccccc21 | Eggerthella lenta | microbial growth | ATCC43055 | – | 2 µg/mL |
| CC1C(=NOCc2cc(-c3ccc(Cl)cc3)no2)C(C)C(c2ccc(Cl)cc2)OC1c1ccc(Cl)cc1 (centres unmarked) | Aspergillus flavus | microbial growth | – | – | 12.5 µg/mL |
| CC(C)C[C@@H]1NC(=O)[C@H](C)NC(=O)[C@H](NC(=O)[C@H](CO)NC(=O)[C@@H](CCCCN)NC(=O)[C@@H](C)NC(=O)[C@@H](N)Cc2ccccc2)[C@H](C(N)=O)OC(=O)[C@H](CC(C)C)NC1=O | Bacillus subtilis Bacillus subtilis | – | ATCC 6051 | tested as TFA salt | 4 to 8 µg/mL |
| CC[C@H](C)[C@H](NC(=O)[C@H](Cc1c[nH]c2ccccc12)NC(=O)[C@H](CCCNC(=N)N)NC(=O)[C@H](CCC(N)=O)NC(=O)[C@@H](NC(=O)[C@H](Cc1c[nH]c2ccccc12)NC(=O)[C@H](CCCNC(=N)N)NC(=O)[C@H](CCCNC(=N)N)NC(=O)[C@H](CCSC)NC(=O)[C@H](C)NC(=O)[C@H](CCCCN)NC(=O)[C@@H]1CCCN1C(=O)[C@H](C)N)C(C)C)C(=O)N[C@@H](CCCNC(=N)N)C(=O)N[C@@H](CCCNC(=N)N)C(=O)N[C@@H](Cc1c[nH]c2ccccc12)C(=O)N[C@@H](CCCNC(=N)N)C(=O)N1CCC[C@H]1C(=O)N[C@@H](CCCCN)C(=O)N[C@H](C(=O)N[C@@H](Cc1ccccc1)C(=O)N[C@@H](CCC(N)=O)C(=O)N[C@H](C(=O)N[C@H](C(=O)NCC(=O)N[C@@H](CO)C(=O)N[C@@H](CO)C(=O)N[C@@H](C)C(N)=O)[C@@H](C)O)C(C)C)C(C)C | Malassezia furfur | cell growth | DTO 383-D9 | 48 h, 30 °C | ≤ 0.3 µM |
| COc1ccc2ccc3c(c2c1)C=[N+]1C2CCCCC2[N+]2=Cc4cccc(OC)c4[O][Au-]21[O]3.F[P-](F)(F)(F)(F)F (centres unmarked) | Klebsiella pneumoniae | bacterial growth, broth microdilution | carbapenem-resistant | 24 h | 10 µM |
| CN[C@@H]1[C@H](O)[C@H](NC)[C@H]2O[C@]3(O)[C@H](O[C@@H]2[C@H]1O)O[C@H](C)C[C@@]3(O)CNCc1ccc(OC(F)(F)F)cc1 | Listeria monocytogenes | – | – | – | 12.5 to 25 µg/mL |
| O=[N+]([O-])c1ccc(C2=[N+]([O-])c3ccccc3N3CCCN=C23)cc1 | Fusobacterium nucleatum | microbial growth | ATCC25586 | – | ≤ 0.06 µg/mL |
| CC[C@H](C)[C@H](NC(=O)[C@H](CC(C)C)NC(=O)[C@H](C)NC(=O)[C@H](CO)NC(=O)[C@H](CCCNC(=N)N)NC(=O)[C@@H](N)CO)C(=O)N[C@H](C(=O)N[C@@H](Cc1c[nH]cn1)C(=O)N[C@@H](CCC(N)=O)C(=O)N[C@@H](CCCNC(=N)N)C(=O)N[C@@H](CC(C)C)C(=O)N[C@@H](Cc1ccccc1)C(N)=O)C(C)C | Trichophyton rubrum | broth microdilution | ATCC 28189 | – | > 400 µg/mL |
| O=C(NCc1nc(-c2ccc(Br)cc2)c[nH]1)Nc1ncc(Sc2ccccn2)s1 | Bacteroides ovatus | broth microdilution | ATCC 8485 | with: verapamil 50 µg/mL | > 128 µM |
| C[N+]1=C2C(c3ccccc3)=[N+]([O-])c3ccccc3N2CCC1 | Eggerthella lenta | microbial growth | ATCC43055 | – | 4 µg/mL |
| CC[C@H](C)[C@H](NC(=O)[C@H](CO)NC(=O)[C@H](CO)NC(=O)[C@H](Cc1ccccc1)NC(=O)CN)C(=O)N[C@@H](Cc1ccccc1)C(=O)N[C@@H](CCCNC(=N)N)C(N)=O | Escherichia coli | – | ATCC 8739 | with: 2.5 mM CaCl2 | > 128 µM |

Some of these lines once more:
| Compound | organism | assay | system | setting | MIC |
| --- | --- | --- | --- | --- | --- |
| CC[C@H](C)[C@H](NC(=O)[C@H](CO)NC(=O)[C@H](CO)NC(=O)[C@H](Cc1ccccc1)NC(=O)CN)C(=O)N[C@@H](Cc1ccccc1)C(=O)N[C@@H](CCCNC(=N)N)C(N)=O | Escherichia coli | – | ATCC 8739 | with: 2.5 mM CaCl2 | > 128 µM |
